Assay results of several laboratories.
Each numbered part is a random draw from the data of one study; scales do not carry over between parts.

Block 1
Target: RNA binding protein fox-1 homolog 2, RRM domain, GST-SBP tag (RBFOX2, Homo sapiens, UniProt O43251-10, residues 100-194)
Technique: RNA Bind-n-Seq
Molecule type: RNA
Medium: in vitro
Tested at: 365 nM
Setting: natural RNA segment, single round, ends assumed
Baseline: no-protein control
Reading: higher = stronger binding
Oligonucleotide | RBNS enrichment (R)
GGGAGUUCUACAGUCCGACGAUCUCUACUAACAUGUUUAGCAAAUGGCUCUGACAGGGUGGCCAUGAGCAGAUGAGACCAGCUCUUGCUUGGUUGGAAGCCACACUGCAGUUUGCAGUUUAGCCUUUGGUGUCUGGAAUUCUCGGGUGCCAA | 0.45
GGGAGUUCUACAGUCCGACGAUCUUCGUCAUCAGUUGUUCUUGAACAUGGUCUUUUAAAAACUAGUCAGAUGAAUUGUUUUCAUCUGAAGCCUGCUAUCUUUUUUAAAAGAUGUGCUAUUUAUUCUUGCACGAUGGAAUUCUCGGGUGCCAA | 5.18
GGGAGUUCUACAGUCCGACGAUCUCAUGUUUUGUUAAUCCGCUUCACUAAAUUGGACCUUCACAUAUCUAAAAAGCUCUGAAGUGUUUGUAUAUUUGAAAUACCUCAAUAAAGAGAGAGCUCAUUGACUGUAAUGGAAUUCUCGGGUGCCAA | 0.403

Block 2
Target: Interferon regulatory factor 7, full length, phosphomimetic (IRF7, Homo sapiens, UniProt Q92985, residues 1-503, S101K/S471D/S472D/S475D/S476D/S477D/S483D/S484D/S487D)
Sequence of UniProt Q92985 (whole entry, unmodified, looked up): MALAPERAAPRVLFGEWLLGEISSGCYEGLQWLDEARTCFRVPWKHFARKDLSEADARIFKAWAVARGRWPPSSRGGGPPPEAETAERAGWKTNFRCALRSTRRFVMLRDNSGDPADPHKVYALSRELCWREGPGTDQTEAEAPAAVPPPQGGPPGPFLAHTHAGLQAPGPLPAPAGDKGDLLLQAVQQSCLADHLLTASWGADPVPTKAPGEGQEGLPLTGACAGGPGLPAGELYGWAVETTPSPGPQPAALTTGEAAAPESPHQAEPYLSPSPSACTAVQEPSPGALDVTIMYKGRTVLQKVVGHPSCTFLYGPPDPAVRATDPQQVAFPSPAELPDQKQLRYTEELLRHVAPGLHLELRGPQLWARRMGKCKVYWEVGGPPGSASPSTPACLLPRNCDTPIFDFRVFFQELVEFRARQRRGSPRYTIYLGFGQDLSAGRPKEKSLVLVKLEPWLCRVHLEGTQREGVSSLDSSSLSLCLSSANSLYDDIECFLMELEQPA
Technique: protein-binding microarray
Molecule type: double-stranded DNA, one strand shown
Medium: in vitro
Tested at: 250 nM
Setting: 60-bp whole probe
Together with: salmon DNA 0.4 mg/ml
Baseline: random background probes
Reading: higher = stronger binding
All sequences stand within: GCCTAGCAC … GTCTTGATTCGCTTGACGCTGCTG
Oligonucleotide | log fluorescence [z-score]
GACGGACAGCTTATCCTGACGTGCTAG | -0.511
GACCGACTGGGTATCGGGACGTGCTAG | 0.0726
TTAGGTATGGACTATCGGTTAGTGCTA | -0.415
TTAGGTTTCCTTAGCCTTTAGTGCTAG | 0.914
TTAGGTATCGGGTATCTGTTAGTGCTA | 0.79
GACGGTATCCTTTGCCTGACGTGCTAG | -0.194

Block 3
Target: Histone acetyltransferase KAT6A, winged helix 2, GST fusion (KAT6A, Homo sapiens, UniProt Q92794, residues 85-181)
Technique: protein binding microarray
Molecule type: double-stranded DNA, one strand shown
Medium: in vitro
Tested at: not given
Setting: 8-mer, flanks averaged, mean of 2 arrays, mostly near background
Baseline: not given
Reading: higher = stronger binding
Target sequence (chain): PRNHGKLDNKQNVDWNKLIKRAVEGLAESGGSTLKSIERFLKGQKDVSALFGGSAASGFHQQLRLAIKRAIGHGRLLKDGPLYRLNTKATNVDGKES
Oligonucleotide | E-score
CTATGGGC | -0.0415
ACATATCG | -0.136
AGATGACG | -0.0432
CTCAGTTA | 0.126

Mixed results
Molecule | target | test | test system | setting | scale | measurement | value
PhoQ, residues 284 288 289 292 302 303 TTCLQL | PhoP, residues 12 14 15 18 19 HLGGL (Escherichia coli, UniProt P23836) | Sort-seq, refers to: YFP reporter | E. coli | PhoQ-PhoP variant library, together with: 10 µM Mg2+ | baseline: high Mg2+ state, higher = stronger signaling | fold induction | 3.12

A few entries again (block 1):
Oligonucleotide | RBNS enrichment (R)
GGGAGUUCUACAGUCCGACGAUCUUCGUCAUCAGUUGUUCUUGAACAUGGUCUUUUAAAAACUAGUCAGAUGAAUUGUUUUCAUCUGAAGCCUGCUAUCUUUUUUAAAAGAUGUGCUAUUUAUUCUUGCACGAUGGAAUUCUCGGGUGCCAA | 5.18
GGGAGUUCUACAGUCCGACGAUCUCUACUAACAUGUUUAGCAAAUGGCUCUGACAGGGUGGCCAUGAGCAGAUGAGACCAGCUCUUGCUUGGUUGGAAGCCACACUGCAGUUUGCAGUUUAGCCUUUGGUGUCUGGAAUUCUCGGGUGCCAA | 0.45
